# Results pooled from the literature.
# Numbered parts are unrelated; each lists some results of a single study. Positions count from the first letter of the parent shown.

# Set 1
# Target: Histone acetyltransferase KAT6A, both winged helices, GST fusion (KAT6A, Homo sapiens, UniProt Q92794, residues 1-181)
# Technique: protein binding microarray
# Molecule type: double-stranded DNA, one strand shown
# Sample: in vitro
# Tested at: not given
# Setting: 8-mer, flanks averaged, mean of 2 arrays, mostly near background
# Reference: not given
# Reading: higher = stronger binding
# Construct (chain): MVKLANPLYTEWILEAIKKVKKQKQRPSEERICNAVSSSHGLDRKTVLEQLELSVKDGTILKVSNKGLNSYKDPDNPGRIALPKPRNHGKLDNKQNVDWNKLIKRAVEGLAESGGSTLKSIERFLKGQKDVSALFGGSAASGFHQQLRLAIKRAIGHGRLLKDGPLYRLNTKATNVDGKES
Strand,E-score
GGACATAA,-0.0178
AGCACTTG,-0.172
CCACATGC,0.0833
GGGGCCAA,-0.0576
ACGACTAC,-0.0977

# Set 2
# Target: RNA binding protein fox-1 homolog 2, RRM domain, GST-SBP tag (RBFOX2, Homo sapiens, UniProt O43251-10, residues 100-194)
# Technique: RNA Bind-n-Seq
# Molecule type: RNA
# Sample: in vitro
# Tested at: 365 nM
# Setting: natural RNA segment, single round, ends assumed
# Reference: no-protein control
# Reading: higher = stronger binding
# All sequences stand within: GGGAGUUCUACAGUCCGACGAUC … UGGAAUUCUCGGGUGCCAA
# Target sequence (chain): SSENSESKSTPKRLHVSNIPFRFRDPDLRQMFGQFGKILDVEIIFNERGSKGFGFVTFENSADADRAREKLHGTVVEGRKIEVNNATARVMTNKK
Strand,RBNS enrichment (R)
CAUCCAGUGAACUCUGCUCUUCCAAGUGUGUUCAUGUAUGUGCUAGAUAUAUUAGCACAGCCUGCCUUCUGCUGCACAACGCCUUAGAGACCCGGCCUUUCAAUGAGCUU,0.545
AUUUUUUAGGUUAACUGAGCUGCUUUGUGCUCAGAAUCUACAUUCCAGAUUGAGGAUUUAGUGUCUUAGGAAAUUUUUUUAAUUUUUUUUUUUUAAAGAAGAAAAAAAAC,1.33
AGGUACCACUUCAUACAGUGAAAAGUGGAAUCUACAGAUAUAAAGCAGUUGAGGAAAAAAGACAACAUAGGAGUUAUUAAUGUCAAUACCCAUCAACAUAAUCACUCUGA,0.43
GACUUGUCACAGUAGAGAUGCUGACAAACCACAUGUGGGAUUGCUAUGCUCCAAGGAUCACCUCAGUUCUCUCUCAGAUUCUGGAAACAGAUGAAAUGCUCUUUGCAUUG,0.197
GUGAAUUGAGUUCUGCUGGGGCUAUAGAGCAUCGGGUCGGCAGCUGUCAUUCCCAGCUCUGUGACCUACUGCUUGGUACUAAAAAGGAGUUUUCUUCCAAAAGCACUGUU,0.574
UUGCAGUUAAUUCCUGCUGCGCUGCCCACAGUGGCUUCCUCCCUUCAGUUUGUCCCUGAGACCCCUGAGUGGCCUUUGCUUCUCCAGGGUACUGGGUUGAAGAUCCAGCC,0.231

# Single results of other studies
# CCNB1: CCNB1, cyclin fold, Cln2 fusion (human)
# P1: SLBP docking peptide (human); ARYKRKLLINDFG
Substance,target,test,test system,setting,scale,endpoint,result
P1 I9E,CCNB1,"yeast growth competition, sequencing",yeast,weak parent motif,"reference: not given, higher = stronger binding",normalised enrichment score,0.523
"PhoQ, residues 284 288 289 292 302 303 SMYGEC","PhoP, residues 12 14 15 18 19 NIMAP (Escherichia coli, UniProt P23836)","Sort-seq, refers to: YFP reporter",E. coli,"PhoQ-PhoP variant library, added: 10 µM Mg2+","reference: high Mg2+ state, higher = stronger signaling",fold induction,0.412
P1 R5K L8F,CCNB1,"yeast growth competition, sequencing",yeast,weak parent motif,"reference: not given, higher = stronger binding",normalised enrichment score,0.291

# Repeated from above (set 2):
Strand,RBNS enrichment (R)
AGGUACCACUUCAUACAGUGAAAAGUGGAAUCUACAGAUAUAAAGCAGUUGAGGAAAAAAGACAACAUAGGAGUUAUUAAUGUCAAUACCCAUCAACAUAAUCACUCUGA,0.43
CAUCCAGUGAACUCUGCUCUUCCAAGUGUGUUCAUGUAUGUGCUAGAUAUAUUAGCACAGCCUGCCUUCUGCUGCACAACGCCUUAGAGACCCGGCCUUUCAAUGAGCUU,0.545
